Experimental data of several laboratories.
Compare with care: the assays were run in different laboratories.

The MIC of N=C(N)NCCC[C@H](NC(=O)CN)C(=O)N[C@@H](Cc1c[nH]c2ccccc12)C(=O)N[C@@H](CCCNC(=N)N)C(=O)N[C@@H](Cc1c[nH]c2ccccc12)C(=O)N[C@@H](Cc1c[nH]c2ccccc12)C(=O)N[C@@H](Cc1c[nH]c2ccccc12)C(=O)N[C@@H](CCCNC(=N)N)C(=O)N[C@@H](Cc1c[nH]c2ccccc12)C(=O)N[C@@H](CCCNC(=N)N)C(=O)N[C@@H](Cc1c[nH]c2ccccc12)C(N)=O is reported as 8 µM (Candida albicans; broth microdilution; 56452, RPMI 1640-MOPS; 48 h, 30 °C).
For CC[C@H](C)CCCCC(=O)N[C@@H](CCN)C(=O)N[C@H](C(=O)N[C@@H](CCN)C(=O)N[C@H]1CCNC(=O)[C@H]([C@@H](C)O)NC(=O)[C@H](CCN)NC(=O)[C@H](CCN)NC(=O)[C@H](CC(C)C)NC(=O)[C@@H](CC(C)C)NC(=O)[C@H](CCN)NC1=O)[C@@H](C)O, the MIC was > 64 µg/mL (Enterobacter cloacae; ATCC 13047).
For CC[C@H](C)C[C@H](C)CCCCCCCCC(=O)N[C@H]1C[C@@H](O)[C@@H](NCCN)NC(=O)[C@@H]2[C@@H](O)CCN2C(=O)[C@H]([C@H](O)CCN)NC(=O)[C@H]([C@H](O)[C@@H](O)c2ccc(O)cc2)NC(=O)[C@@H]2C[C@@H](O)CN2C(=O)[C@H]([C@@H](C)O)NC1=O, the MIC was 1 µg/mL (Clavispora lusitaniae; broth dilution; ATCC 34449; 48 h, 37 °C).
CC(C)[C@H](NC(=O)[C@H](CCCNC(=N)N)NC(=O)[C@H](Cc1c[nH]c2ccccc12)NC(=O)[C@H](CCCNC(=N)N)NC(=O)[C@H](Cc1c[nH]c2ccccc12)NC(=O)[C@H](Cc1c[nH]c2ccccc12)NC(=O)[C@H](Cc1c[nH]c2ccccc12)NC(=O)[C@H](CCCNC(=N)N)NC(=O)[C@H](Cc1c[nH]c2ccccc12)NC(=O)[C@@H](N)CCCNC(=N)N)C(N)=O has an MIC of 32 µM (Candida albicans; broth microdilution; CGMCC 2.209, RPMI 1640-MOPS; 48 h, 30 °C, added: NaCl 150 mM).
For CC[C@H](C)[C@H](NC(=O)CN)C(=O)NCC(=O)N[C@@H](C)C(=O)N[C@H](C(=O)N[C@@H](CC(C)C)C(=O)N[C@@H](CCCCN)C(=O)N[C@H](C(=O)N[C@@H](CC(C)C)C(=O)N[C@H](C(=O)N[C@H](C(=O)NCC(=O)N[C@@H](CC(C)C)C(=O)N1CCC[C@H]1C(=O)N[C@@H](C)C(=O)N[C@@H](CC(C)C)C(=O)N[C@H](C(=O)N[C@@H](CO)C(=O)N[C@@H](Cc1c[nH]c2ccccc12)C(=O)N[C@H](C(=O)N[C@@H](CCCCN)C(=O)N[C@@H](CCCNC(=N)N)C(=O)N[C@@H](CCCCN)C(=O)N[C@@H](CCCNC(=N)N)C(=O)N[C@@H](CCC(N)=O)C(=O)N[C@@H](CCC(N)=O)C(N)=O)[C@@H](C)CC)[C@@H](C)CC)[C@@H](C)O)[C@@H](C)O)C(C)C)C(C)C, the MIC was 2 µM (Candida parapsilosis; CGMCC 2.399; 48 h, 37 °C).
CC[C@H](C)[C@H](NC(=O)[C@H](CCCCN)NC(=O)[C@@H](NC(=O)[C@H](Cc1ccc(O)cc1)NC(=O)[C@H](CCCCN)NC(=O)[C@H](CCCCN)NC(=O)CNC(=O)[C@H](CCCCN)NC(=O)[C@@H](NC(=O)[C@H](C)NC(=O)[C@H](CC(C)C)NC(=O)[C@H](Cc1c[nH]c2ccccc12)NC(=O)CNC(=O)[C@@H](NC(=O)[C@H](Cc1ccccc1)NC(=O)[C@H](CCCCN)NC(=O)[C@H](CC(C)C)NC(=O)[C@H](Cc1ccccc1)NC(=O)[C@H](C)NC(=O)CNC(=O)[C@@H](N)CCSC)C(C)C)[C@@H](C)O)C(C)C)C(=O)N[C@@H](C)C(=O)N[C@@H](Cc1c[nH]c2ccccc12)C(=O)N[C@@H](CC(=O)O)C(=O)N[C@@H](Cc1c[nH]cn1)C(=O)N[C@@H](CCCCN)C(=O)NCC(=O)N[C@H](C(=O)N[C@H](C(=O)N[C@@H](CCSC)C(=O)N[C@@H](CCCCN)C(=O)N[C@@H](Cc1c[nH]c2ccccc12)C(=O)N[C@@H](CC(C)C)C(=O)N[C@@H](CC(N)=O)C(=O)N[C@@H](C)C(=O)NCC(=O)N[C@@H](CCC(N)=O)C(=O)N[C@H](C(=O)N[C@@H](Cc1ccccc1)C(=O)N[C@H](C(=O)N[C@@H](Cc1c[nH]c2ccccc12)C(=O)N[C@H](C(=O)N[C@@H](Cc1ccc(O)cc1)C(=O)N[C@@H](CCC(=O)O)C(=O)N[C@@H](CCC(N)=O)C(=O)N[C@H](C(=O)N[C@@H](CCCCN)C(=O)N[C@@H](CCCCN)C(=O)N[C@@H](CC(C)C)C(=O)N[C@@H](Cc1c[nH]c2ccccc12)C(=O)N[C@H](C(=O)O)[C@@H](C)O)[C@@H](C)CC)C(C)C)[C@@H](C)O)[C@@H](C)O)[C@@H](C)CC)[C@@H](C)O gave an MIC of 15.6 µg/mL (Bacillus cereus; broth microdilution; 37 °C).
With C[C@H](NC(=O)[C@H](CCCNC(=N)N)NC(=O)[C@H](Cc1c[nH]c2ccccc12)NC(=O)[C@H](CCCNC(=N)N)NC(=O)[C@H](Cc1c[nH]c2ccccc12)NC(=O)[C@H](Cc1c[nH]c2ccccc12)NC(=O)[C@H](Cc1c[nH]c2ccccc12)NC(=O)[C@H](CCCNC(=N)N)NC(=O)[C@H](Cc1c[nH]c2ccccc12)NC(=O)[C@H](CCCNC(=N)N)NC(=O)CN)C(N)=O the MIC was 16 µM (Candida parapsilosis; broth microdilution; CGMCC 2.399, RPMI 1640-MOPS; 48 h, 30 °C).
The MIC of CC[C@H](C)[C@H](NC(=O)[C@H](C)NC(=O)[C@H](CCCCN)NC(=O)[C@H](CC(C)C)NC(=O)[C@H](C)NC(=O)[C@@H](NC(=O)[C@H](Cc1c[nH]cn1)NC(=O)[C@H](CC(C)C)NC(=O)[C@@H](NC(=O)[C@@H](NC(=O)[C@H](CCCCN)NC(=O)[C@H](C)NC(=O)[C@H](C)NC(=O)[C@H](CO)NC(=O)[C@H](CCCCN)NC(=O)[C@H](Cc1ccccc1)NC(=O)[C@@H](NC(=O)[C@H](CCCCN)NC(=O)[C@H](CC(C)C)NC(=O)[C@H](Cc1ccccc1)NC(=O)[C@H](CO)NC(=O)[C@H](CCCCN)NC(=O)[C@H](Cc1c[nH]c2ccccc12)NC(=O)[C@H](CCCCN)NC(C)=O)[C@@H](C)O)[C@@H](C)O)C(C)C)[C@@H](C)O)C(=O)N[C@@H](CO)C(=O)N[C@@H](CO)C(N)=O is reported as 4 µg/mL (Enterobacter cloacae; range over strains).
The MIC of CC[C@H](C)[C@H](NC(=O)CN)C(=O)NCC(=O)N[C@@H](C)C(=O)N[C@H](C(=O)N[C@@H](CC(C)C)C(=O)N[C@@H](CCCCN)C(=O)N[C@H](C(=O)N[C@@H](CC(C)C)C(=O)N[C@H](C(=O)N[C@H](C(=O)NCC(=O)N[C@@H](CC(C)C)C(=O)N1CCC[C@H]1C(=O)N[C@@H](C)C(=O)N[C@@H](CC(C)C)C(=O)N[C@H](C(=O)N[C@@H](CO)C(=O)N[C@@H](Cc1c[nH]c2ccccc12)C(=O)N[C@H](C(=O)N[C@@H](CCCCN)C(=O)N[C@@H](CCCNC(=N)N)C(=O)N[C@@H](CCCCN)C(=O)N[C@@H](CCCNC(=N)N)C(=O)N[C@@H](CCC(N)=O)C(=O)N[C@@H](CCC(N)=O)C(N)=O)[C@@H](C)CC)[C@@H](C)CC)[C@@H](C)O)[C@@H](C)O)C(C)C)C(C)C is reported as 4 µM (Candida parapsilosis; broth microdilution; CGMCC 2.399, RPMI 1640-MOPS; 48 h, 30 °C).
With CC(C)(CN)CNCc1nc2ccccc2n1CCOc1ccccc1 the MIC was 16 to 64 µg/mL (Gram-negative bacteria panel).
With C[C@@H](O)[C@H]1C(=O)N2C(C(=O)O)=C(SCCN=CN)C[C@H]12 the MIC was 512 µg/mL (Klebsiella pneumoniae; K4, first KPC-180 variant emerged; multistep mutant selection, avibactam 2731/4 mg/L).
CC(C)C[C@H](NC(=O)CNC(=O)CNC(=O)CNC(=O)[C@H](Cc1ccc(O)cc1)NC(=O)[C@H](CC(C)C)NC(=O)[C@@H](NC(=O)CNC(=O)[C@H](Cc1ccc(O)cc1)NC(=O)[C@H](CCCCN)NC(=O)[C@H](CC(N)=O)NC(=O)[C@@H](NC(=O)[C@H](CCCCN)NC(=O)[C@H](Cc1c[nH]c2ccccc12)NC(=O)CN)[C@@H](C)O)[C@@H](C)O)C(=O)N[C@@H](CCCCN)C(=O)N[C@@H](CCCCN)C(=O)N[C@@H](CC(C)C)C(=O)N[C@@H](CC(C)C)C(=O)N[C@@H](CC(C)C)C(=O)N[C@@H](CC(C)C)C(=O)N[C@@H](CC(C)C)C(=O)N[C@@H](CCCCN)C(=O)N[C@@H](CCCCN)C(=O)N[C@@H](CC(C)C)C(=O)NCC(=O)O has an MIC of 32 µg/mL (Staphylococcus aureus; USA300; added: 4.5 mM KCl).

Some of these lines once more:
For CC[C@H](C)CCCCC(=O)N[C@@H](CCN)C(=O)N[C@H](C(=O)N[C@@H](CCN)C(=O)N[C@H]1CCNC(=O)[C@H]([C@@H](C)O)NC(=O)[C@H](CCN)NC(=O)[C@H](CCN)NC(=O)[C@H](CC(C)C)NC(=O)[C@@H](CC(C)C)NC(=O)[C@H](CCN)NC1=O)[C@@H](C)O, the MIC was > 64 µg/mL (Enterobacter cloacae; ATCC 13047).
